Experimental data gathered from unrelated publications.
Lines come from different studies, so protocols differ. “And” joins repeats or separate records; there may be more than shown. ± marks the error that the study gave.

O=C(Nc1cnccc1-c1ccc([18F])cc1)c1ccnc(NC(=O)C2CC2)c1
SUV (mice, transgenic, GSK-3β, early-stage, large intestine; intravenous, dose not given, 120 min, added: tariquidar 15 mg/kg i.v. pre-dose): 0.37

CCC1C(COc2nccc3cc(C(N)=O)c(OC)cc23)NC(=O)C1F (centres unmarked)
AUC(0-t) (ICR mice, plasma; intravenous, 1 mg/kg): 0.452 ± 0.454 µg·h/mL

O=C(c1ccccc1)N1C(c2ccc(OCC3CCN(CCCF)C3)cc2)c2ccc(O)cc2CC12CC2 (centres unmarked)
half-life (C57BL/6J mouse, plasma; intraperitoneal, 25 mg/kg): 3.58 h

CCCCCCCOc1ccc(CC[C@](N)(CO)COP(=O)(O)O)cc1C(F)(F)F
half-life (healthy human males, plasma; oral, 0.75 mg, day 21): 385 h

C#CCNC(=O)C(CC(C)(C)F)NC(c1ccc(-c2ccc(S(C)(=O)=O)cc2)cc1)C(F)(F)F (centres unmarked)
cysteine adduct formation (PBS; 100 µM, 23 h, pH 8, 37 °C, added: cysteine 10 mM): < 1%

CC(C(=O)O)n1nc(Cn2cc3cc(OCC[18F])c(Cl)cc3n2)c2ccccc2c1=O (racemic)
tissue uptake (Sprague-Dawley rat male, pancreas; 30 min): 0.23 ± 0.04 %ID/g

COc1ccnc(C(=O)N[C@H]2COC(=O)[C@H](Cc3ccccc3)[C@@H](OC(=O)C(C)C)[C@H](C)OC2=O)c1O
DT50 (water/sediment; 20 °C, whole system, longest, aerobic dark): 2.37 days

CNCc1ccc(-c2cc(=O)c3ccc4[nH]c(C(F)(F)F)nc4c3o2)cc1
t1/2 (ICR mice, brain; oral, 5 mg/kg): 3.49 h

CCc1cnc(NC(=O)c2cc(S(=O)(=O)N3CCOCC3)ccc2N(C)C2CCCC2)s1
haematocrit (mouse; 10 mg/kg, 3 doses): 48.7%

CNc1nc(N)nc2c1ncn2C1OC(COP(=O)(O)NC(C)C(=O)O)C(O)C1(C)F (centres unmarked)
Cmax, geometric mean (healthy adult humans, plasma; oral, 550 mg once daily, day 6, fasted, given alone): 0.593 µg/mL

OC1(C(F)(F)F)CCN(c2nc(Nc3ccnc(C(F)(F)F)c3)nc(-c3cccc(C(F)(F)F)n3)n2)C1 (centres unmarked)
Tmax (monkey, plasma; oral, 3 mg/kg): 6 ± 1.26 h

C=CC(=O)Nc1cc(Nc2nccc(-c3c[nH]c4ccccc34)n2)c(OC)cc1N(C)CCN(C)C
recovery (storage stability; human dried blood spots; 72 h, -80 °C, low QC level): 98.8%

C=Cc1c(C)c2cc3nc(c(CC(=O)OCCOCCOCCOC)c4[nH]c(cc5nc(cc1[nH]2)C(C)=C5CC)c(C)c4C(=O)OCCOCCOCCOC)[C@@H](CCC(=O)OCCOCCOCCOC)[C@@H]3C
compound loss (LC-MS; methanol-water 9:1; 5 min, pH 2.0): 25%

COCC1CN(C2CCN(c3cc(OC)c(Nc4ncc(Br)c(Nc5ccc6c(c5P(C)(C)=O)OCCO6)n4)cc3C)CC2)C1
AUC (human, plasma; oral, 30 mg, multiple doses, patients): 7.23 µg·h/mL

COc1ccc(Nc2nc(Nc3ccc(OCCOCC[18F])cc3)ncc2Br)cc1
uptake ratio (ICR mice, S180 tumour; intravenous, 370 kBq, 120 min; relative to: tumour over blood): 1.67

CCCC[C@H](NC(=O)CNC(=O)CNC(=O)[C@H](CCCCNC(=O)[C@H](CC(N)=O)NC(=O)C(C)c1ccc(CC(C)C)cc1)NC(=O)CN1CCN(CC(=O)O)CCN(CC(=O)O)CCN(CC(=O)O)CC1)C(=O)N[C@H]1CC(=O)NCCCC[C@@H](C(N)=O)NC(=O)[C@H](Cc2c[nH]c3ccccc23)NC(=O)[C@H](CCCNC(=N)N)NC(=O)[C@@H](Cc2ccccc2)NC(=O)[C@H](Cc2c[nH]cn2)NC1=O (some centres unmarked) [lutetium-177 labelled]
tumour-to-tissue ratio (C57 mice, tumour; 2 h; relative to: muscle): 50.1

Cc1cccc(Cn2ncc3c4cc(F)c(CN(C)C)cc4n(C)c3c2=O)n1
plasma concentration (Dutch-belted rabbit, plasma; intravitreal, 1 µM vitreous, 1.00 days): not detected

CN1CCC[C@]1(C)/C=C/S(=O)(=O)NC(=O)Nc1c2c(cc3c1C(O)CC3)CCC2 (some centres unmarked)
Tmax at first steady-state dose (human, plasma; oral, 100 mg twice daily of parent drug, day 14, metabolite of dosed drug): 2 h

O=C(Nc1ccc(-c2nnc(-c3ccccn3)nn2)nc1)c1ccc(-c2cn(CCOCCOCCOCC[18F])nn2)cc1
tumour to control tumour ratio (BALB/c nude mouse, LS174T xenograft; intravenous, dose not given, 1 h, added: CC49-TCO pretargeting): 1.2

O=C(Nc1cnccc1-c1ccc([18F])nc1)c1ccnc(NC(=O)C2CC2)c1
SUV (FVB/NJ mice, both sexes, brain; intravenous, 30 min, median, no P-gp inhibitor): 0.078

Cc1nn(-c2nc3c(F)cc(F)cc3s2)c(O)c1C(c1ccc(C(F)(F)F)cc1)c1c(C)nn(-c2nc3c(F)cc(F)cc3s2)c1O
dose-normalised Cmax (ICR mouse, plasma; intraperitoneal, 10 mg/kg): 432 kg·ng/mL/mg and 437 kg·ng/mL/mg and 455 kg·ng/mL/mg

C[C@H](C(=O)O)c1ccc(-c2ccccc2)c(F)c1
relative change of HPLC peak area (HPLC; solution; concentration not given, 2 h, room temperature): 0.99%

O=C(CN1CCN(CC(=O)NCc2ncccc2O)CCN(CC(=O)NCc2ncccc2O)CCN(CC(=O)NCc2ncccc2O)CC1)NCc1ncccc1O.[177Lu+3]
tissue uptake (Sprague-Dawley rat, brain; intravenous (tail vein), dose not given, 2 h): 0.001 ± 0.007 % injected dose/g

COc1cccc(OC)c1-c1cc(C(=O)NC2(C(=O)O)C3CC4CC(C3)CC2C4)nn1-c1ccc(C(=O)N(C)CCCN(C)C(=O)[C@H](CCCCNC(=O)[C@H](CC(C)C)NC(=O)C2OC2C(=O)O)NC(=O)CN2CCN(CC(=O)[O-])CCN(CC(=O)[O-])CCN(CC(=O)[O-])CC2)cc1C(C)C.[177Lu+3] (mixture of isomers)
tumour-to-heart ratio (mouse, HT-29 xenograft; 24 h post injection, biodistribution; relative to: tumour over heart uptake): 19.4

CCCC[C@H](NC(=O)CNC(=O)CNC(=O)[C@H](CCCCNC(=O)[C@H](CC(=O)O)NC(=O)C(C)c1ccc(CC(C)C)cc1)NC(=O)CN1CCN(CC(=O)O)CCN(CC(=O)O)CCN(CC(=O)O)CC1)C(=O)N[C@H]1CC(=O)NCCCC[C@@H](C(N)=O)NC(=O)[C@H](Cc2c[nH]c3ccccc23)NC(=O)[C@H](CCCNC(=N)N)NC(=O)[C@@H](Cc2ccccc2)NC(=O)[C@H](Cc2c[nH]cn2)NC1=O (some centres unmarked) [lutetium-177 labelled]
tumour to tissue ratio (C57 mouse; intravenous, 2 h, added: NDP-MSH blockade; relative to: tumour over lung): 2.2

C=CC(=O)Nc1cc(Nc2nccc(-c3cn(C)c4ccccc34)n2)c(OC)cc1N(C)CCNC
recovery (storage stability; human dried blood spot; 10 d, on ice, MQC level): 75.4%

O=S(=O)(NCc1ccncc1)c1ccc(C2CCCCC2)cc1
PU.1-positive cell count (CK mouse (male); intraperitoneal, 1.0 mg/kg daily, 2 weeks): decreased

COc1cccc(OC)c1-c1cc(C(=O)NC2(C(=O)O)C3CC4CC(C3)CC2C4)nn1-c1ccc(C(=O)N(C)CCOCCOCCN(C)C(=O)[C@H](CCCCNC(=O)[C@H](CC(C)C)NC(=O)C2OC2C(=O)O)NC(=O)CN2CCN(CC(=O)[O-])CCN(CC(=O)[O-])CCN(CC(=O)[O-])CC2)cc1C(C)C.[177Lu+3] (mixture of isomers)
tumour-to-heart ratio (mouse, HT-29 xenograft; 168 h post injection, biodistribution; relative to: tumour over heart uptake): 6.58

[123I]c1ccc2nc(-c3ccc(-n4ccnn4)nc3)cn2c1
tracer uptake (male Wistar rat, pancreas; intravenous, 4 MBq, 1 h): 0.099 %ID/g

O=C(NS(=O)(=O)c1cccs1)c1cc2ccccc2n1Cc1ccc(Br)c2ccccc12
tissue concentration (Sprague-Dawley rat, male, ankle joint tissue; oral, 2 mg/kg, 6 h): 7580 ng/g

CC[C@H](C)[C@@H]1NC(=O)[C@H](Cc2ccc(O)cc2)NC(=O)CCCSC[C@@H](C(=O)N(CC(=O)N[C@@H](CC(C)C)C(=O)NCC(N)=O)Cc2ccc(F)cc2)NC(=O)[C@H](CC(N)=O)NC(=O)[C@H](CCC(N)=O)NC1=O
serious adverse events (human; intranasal and intravenous, 400 µg intranasal and 20 µg intravenous): 0%

N=C(N)NCCC[C@@H]1NC(=O)[C@H](CO)NC(=O)[C@@H](NC(=O)[C@H](CO)NC(=O)[C@H](CO)NC(=O)[C@H](Cc2c[nH]c3ccccc23)NC(=O)CNC(=O)[C@H](CO)NC(=O)[C@@H](N)Cc2c[nH]c3ccccc23)CSSC[C@@H](C(=O)NCC(=O)O)NC(=O)[C@H](CO)NC1=O
volume of distribution (Vz) (patients, plasma; intravenous, 5 mg/kg, thrice weekly, mean): 596 L

Cc1n[nH]c(C)c1CCCOc1cc(C(=O)NCCCCC(NC(=O)CN2CCN(CC(=O)[O-])CCN(CC(=O)[O-])CCN(CC(=O)[O-])CC2)C(=O)NCC2CCC(C(=O)NC(Cc3ccc4ccccc4c3)C(=O)NCCCCC(NC(=O)NC(CCC(=O)O)C(=O)O)C(=O)O)CC2)ccc1F.[68Ga+3] (centres unmarked)
distribution half-life (BALB/c mouse, blood; intravenous): 1.12 min

Cc1cc(C)n(CCN(CCN)CCCCCCNC(=O)[C@@H](N)Cc2c[nH]cn2)n1.[99Tc+].[C-]#[O+].[C-]#[O+].[C-]#[O+]
tumour-to-tissue ratio (BALB/c nude mice A549 xenograft; intravenous, 4 h; relative to: tumour over lung): 1.3

C=C(NC(=O)c1csc(-c2nc3c(cc2O)-c2nc(cs2)C(=O)NC(C(C)O)C(=O)NC(=C(C)OC)c2nc(cs2)C(=O)NC2c4nc(cs4)C(=O)NC(COC(=O)c4c5c6c(cccc6n4O)COC(=O)C(OC4CC(C)(O)C(N(C)C)C(C)O4)C2OC5)c2nc-3cs2)n1)C(N)=O (centres unmarked)
Tmax (cynomolgus monkey, both sexes, plasma; intravenous infusion, 1.5 mg/kg twice daily, 0 to 30 h): 1.15 h

Cc1nc(N)nc2c1C(=O)N[C@@H](c1ccc(F)cc1-c1cccc(O[11CH3])n1)C2
tracer uptake (ex vivo biodistribution; healthy mice, urine; 60 min post-injection, baseline, vehicle pre-treatment): 0.4 ± 0.2 %ID

CCCCN1C(=O)c2cccc3c(NCCCCCCCCN4CCOCC4)ccc(c23)C1=O
fluorescence quantum yield (DMSO): 0.99

CC(=O)N1CCC=C(c2cc3c(Nc4cc5ncsc5cc4F)ncnc3s2)C1
oral bioavailability (BALB/c mouse): 19.4%

C[N+](C)(CCOCCOCCOCCNC(=S)Nc1ccc(C[C@H]2CN(CC(=O)[O-])CCN(CC(=O)[O-])CCN2CC(=O)[O-])cc1)C[c-]1cccc1.[64Cu+2].[Fe+2].c1cc[cH-]c1
tumour uptake (pretargeted biodistribution; nude mouse, BxPC-3 xenograft tumour; 8 h post injection, 144 h lag time): 2.2 ± 1.1 %ID/g

CC(=O)N([O-])CCCCCNC(=O)CCC(=O)N([O-])CCCCCNC(=O)CCC(=O)N([O-])CCCCCN.[89Zr+4]
intact complex (radio-TLC; aqueous buffer; 7 d, pH 5, 37 °C, 89Zr-labelled complex, added: DTPA 1000-fold excess): 59.4 ± 1.4%

NS(=O)(=O)c1c(F)c(F)c(SCCc2ccccc2)c(F)c1F
pKa (sulfonamide group): 8.05

For quick reference, copied from above:
CNCc1ccc(-c2cc(=O)c3ccc4[nH]c(C(F)(F)F)nc4c3o2)cc1
t1/2 (ICR mice, brain; oral, 5 mg/kg): 3.49 h

CCc1cnc(NC(=O)c2cc(S(=O)(=O)N3CCOCC3)ccc2N(C)C2CCCC2)s1
haematocrit (mouse; 10 mg/kg, 3 doses): 48.7%

CNc1nc(N)nc2c1ncn2C1OC(COP(=O)(O)NC(C)C(=O)O)C(O)C1(C)F (centres unmarked)
Cmax, geometric mean (healthy adult humans, plasma; oral, 550 mg once daily, day 6, fasted, given alone): 0.593 µg/mL
